Published values gathered from unrelated publications.
± gives the spread as reported. In brackets after ≈: the same amount, converted by molar mass.
CNR1: Cannabinoid receptor 1 (CNR1, Homo sapiens, UniProt P21554)
Sequence of UniProt P21554 (whole entry, looked up): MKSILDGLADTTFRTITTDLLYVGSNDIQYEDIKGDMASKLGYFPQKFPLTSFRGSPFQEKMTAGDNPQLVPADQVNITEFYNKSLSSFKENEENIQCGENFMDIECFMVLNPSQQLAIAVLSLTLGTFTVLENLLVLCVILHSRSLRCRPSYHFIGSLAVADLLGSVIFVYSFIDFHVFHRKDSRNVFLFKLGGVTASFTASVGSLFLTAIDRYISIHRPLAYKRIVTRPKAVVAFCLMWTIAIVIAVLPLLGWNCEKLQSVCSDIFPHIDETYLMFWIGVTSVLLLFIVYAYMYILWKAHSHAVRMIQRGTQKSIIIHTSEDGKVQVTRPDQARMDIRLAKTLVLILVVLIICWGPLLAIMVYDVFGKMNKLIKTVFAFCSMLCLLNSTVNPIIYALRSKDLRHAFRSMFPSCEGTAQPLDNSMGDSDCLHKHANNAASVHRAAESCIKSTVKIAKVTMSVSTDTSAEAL
Ryanodine receptor 1: Ryanodine receptor 1 (Oncorhynchus mykiss, UniProt A0A8C7UX14)
Sequence of UniProt O96028 (whole entry, looked up): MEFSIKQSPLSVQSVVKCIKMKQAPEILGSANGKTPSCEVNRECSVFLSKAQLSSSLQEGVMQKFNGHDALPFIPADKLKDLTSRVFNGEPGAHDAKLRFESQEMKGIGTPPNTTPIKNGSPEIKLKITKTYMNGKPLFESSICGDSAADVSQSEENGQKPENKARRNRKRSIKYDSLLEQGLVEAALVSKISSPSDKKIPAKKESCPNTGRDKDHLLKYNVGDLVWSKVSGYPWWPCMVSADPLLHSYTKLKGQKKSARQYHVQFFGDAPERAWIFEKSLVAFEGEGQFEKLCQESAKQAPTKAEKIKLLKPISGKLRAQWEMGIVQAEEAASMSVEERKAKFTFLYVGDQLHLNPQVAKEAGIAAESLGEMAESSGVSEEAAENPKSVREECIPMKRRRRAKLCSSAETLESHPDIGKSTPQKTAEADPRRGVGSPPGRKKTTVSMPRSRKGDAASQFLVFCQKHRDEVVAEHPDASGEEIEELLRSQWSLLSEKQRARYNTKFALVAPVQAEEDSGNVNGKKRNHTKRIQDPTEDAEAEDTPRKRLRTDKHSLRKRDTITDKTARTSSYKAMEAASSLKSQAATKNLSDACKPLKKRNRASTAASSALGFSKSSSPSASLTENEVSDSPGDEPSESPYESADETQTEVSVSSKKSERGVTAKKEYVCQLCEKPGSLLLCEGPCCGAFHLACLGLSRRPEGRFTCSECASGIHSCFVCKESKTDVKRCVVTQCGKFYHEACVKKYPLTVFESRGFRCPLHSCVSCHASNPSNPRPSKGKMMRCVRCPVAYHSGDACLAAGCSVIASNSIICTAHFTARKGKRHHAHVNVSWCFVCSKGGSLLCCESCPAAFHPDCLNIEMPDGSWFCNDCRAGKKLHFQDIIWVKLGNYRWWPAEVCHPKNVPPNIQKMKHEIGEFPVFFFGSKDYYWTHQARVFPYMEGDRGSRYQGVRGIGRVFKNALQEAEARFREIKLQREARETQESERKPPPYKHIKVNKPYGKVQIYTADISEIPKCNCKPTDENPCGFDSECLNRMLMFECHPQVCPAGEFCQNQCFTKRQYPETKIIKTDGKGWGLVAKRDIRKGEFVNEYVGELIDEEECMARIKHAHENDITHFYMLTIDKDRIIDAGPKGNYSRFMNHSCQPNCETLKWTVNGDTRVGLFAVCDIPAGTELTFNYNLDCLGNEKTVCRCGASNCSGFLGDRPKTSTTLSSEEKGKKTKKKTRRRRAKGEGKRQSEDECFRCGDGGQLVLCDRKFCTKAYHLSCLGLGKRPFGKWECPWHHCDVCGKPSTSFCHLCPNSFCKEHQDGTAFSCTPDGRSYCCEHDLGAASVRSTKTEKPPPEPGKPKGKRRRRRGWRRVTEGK
Sequence of UniProt P47870 (whole entry, unmodified, looked up): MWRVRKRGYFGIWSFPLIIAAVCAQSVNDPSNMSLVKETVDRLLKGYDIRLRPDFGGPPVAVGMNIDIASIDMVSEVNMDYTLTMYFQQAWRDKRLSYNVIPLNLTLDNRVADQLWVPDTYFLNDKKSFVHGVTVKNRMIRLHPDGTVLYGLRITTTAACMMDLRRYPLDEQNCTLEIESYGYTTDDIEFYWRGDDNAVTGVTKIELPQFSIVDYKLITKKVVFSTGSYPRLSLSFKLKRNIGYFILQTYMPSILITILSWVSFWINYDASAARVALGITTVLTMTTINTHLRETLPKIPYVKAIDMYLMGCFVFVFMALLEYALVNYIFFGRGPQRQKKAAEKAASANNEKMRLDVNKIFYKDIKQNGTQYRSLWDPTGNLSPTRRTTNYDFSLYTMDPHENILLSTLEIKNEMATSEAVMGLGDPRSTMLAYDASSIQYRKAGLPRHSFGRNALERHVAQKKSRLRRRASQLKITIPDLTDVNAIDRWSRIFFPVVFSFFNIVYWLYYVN
Sequence of UniProt Q8NKB0 (whole entry, unmodified, looked up): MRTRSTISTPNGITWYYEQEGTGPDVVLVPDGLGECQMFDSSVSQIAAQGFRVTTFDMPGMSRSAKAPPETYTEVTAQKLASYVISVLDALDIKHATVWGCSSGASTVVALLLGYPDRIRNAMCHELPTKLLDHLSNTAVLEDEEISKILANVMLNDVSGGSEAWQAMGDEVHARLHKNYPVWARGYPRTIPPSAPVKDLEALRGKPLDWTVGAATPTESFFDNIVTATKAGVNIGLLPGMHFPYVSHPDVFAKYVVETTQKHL
Sequence of UniProt P50225 (whole entry, looked up): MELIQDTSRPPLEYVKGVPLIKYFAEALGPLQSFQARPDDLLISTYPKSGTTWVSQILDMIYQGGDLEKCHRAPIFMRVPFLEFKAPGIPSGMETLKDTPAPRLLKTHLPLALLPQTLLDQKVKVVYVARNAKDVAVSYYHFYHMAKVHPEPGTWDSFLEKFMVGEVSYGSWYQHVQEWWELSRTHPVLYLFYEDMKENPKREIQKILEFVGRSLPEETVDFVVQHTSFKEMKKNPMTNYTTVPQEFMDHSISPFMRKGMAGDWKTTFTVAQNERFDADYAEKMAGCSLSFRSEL
Sequence of UniProt P62813 (whole entry, unmodified, looked up): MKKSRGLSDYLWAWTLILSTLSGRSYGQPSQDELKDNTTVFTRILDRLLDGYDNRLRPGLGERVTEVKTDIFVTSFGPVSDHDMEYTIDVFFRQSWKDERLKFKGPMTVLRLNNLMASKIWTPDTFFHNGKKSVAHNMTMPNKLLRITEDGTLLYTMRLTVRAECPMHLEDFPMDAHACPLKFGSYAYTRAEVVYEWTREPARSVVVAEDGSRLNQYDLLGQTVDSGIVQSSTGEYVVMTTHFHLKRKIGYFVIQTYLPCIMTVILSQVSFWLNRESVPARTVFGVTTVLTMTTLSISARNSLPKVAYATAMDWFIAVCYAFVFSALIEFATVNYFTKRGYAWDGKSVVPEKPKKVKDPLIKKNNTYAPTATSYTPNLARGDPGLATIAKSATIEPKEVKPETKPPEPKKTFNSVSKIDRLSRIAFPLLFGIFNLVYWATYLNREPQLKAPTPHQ
Sequence of UniProt P37484 (84-659, looked up): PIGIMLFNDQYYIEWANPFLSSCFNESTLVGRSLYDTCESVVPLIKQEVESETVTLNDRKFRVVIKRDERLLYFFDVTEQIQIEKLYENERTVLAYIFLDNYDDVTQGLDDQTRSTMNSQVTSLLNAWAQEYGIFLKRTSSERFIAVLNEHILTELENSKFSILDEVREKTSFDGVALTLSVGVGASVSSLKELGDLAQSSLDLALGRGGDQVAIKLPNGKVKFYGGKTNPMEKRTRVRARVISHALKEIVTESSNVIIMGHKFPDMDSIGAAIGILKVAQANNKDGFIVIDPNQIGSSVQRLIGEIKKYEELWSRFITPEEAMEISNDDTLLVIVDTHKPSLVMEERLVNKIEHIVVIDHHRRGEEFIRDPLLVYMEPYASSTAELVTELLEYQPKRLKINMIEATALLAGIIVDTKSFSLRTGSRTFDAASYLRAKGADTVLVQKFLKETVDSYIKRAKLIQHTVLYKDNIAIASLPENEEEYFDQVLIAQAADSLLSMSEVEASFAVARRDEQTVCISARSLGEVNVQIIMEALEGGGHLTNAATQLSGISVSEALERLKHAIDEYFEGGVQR
Sequence of UniProt P0AEE3 (whole entry, looked up): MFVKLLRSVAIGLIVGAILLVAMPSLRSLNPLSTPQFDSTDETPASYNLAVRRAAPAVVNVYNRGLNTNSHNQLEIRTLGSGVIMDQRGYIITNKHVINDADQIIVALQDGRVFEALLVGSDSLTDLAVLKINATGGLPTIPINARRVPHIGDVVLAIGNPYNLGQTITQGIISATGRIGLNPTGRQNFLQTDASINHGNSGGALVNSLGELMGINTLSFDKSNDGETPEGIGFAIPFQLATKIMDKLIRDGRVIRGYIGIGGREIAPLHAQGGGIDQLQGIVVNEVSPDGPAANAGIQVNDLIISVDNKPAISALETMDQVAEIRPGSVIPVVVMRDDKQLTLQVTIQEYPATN
Sequence of UniProt P41143 (whole entry, looked up): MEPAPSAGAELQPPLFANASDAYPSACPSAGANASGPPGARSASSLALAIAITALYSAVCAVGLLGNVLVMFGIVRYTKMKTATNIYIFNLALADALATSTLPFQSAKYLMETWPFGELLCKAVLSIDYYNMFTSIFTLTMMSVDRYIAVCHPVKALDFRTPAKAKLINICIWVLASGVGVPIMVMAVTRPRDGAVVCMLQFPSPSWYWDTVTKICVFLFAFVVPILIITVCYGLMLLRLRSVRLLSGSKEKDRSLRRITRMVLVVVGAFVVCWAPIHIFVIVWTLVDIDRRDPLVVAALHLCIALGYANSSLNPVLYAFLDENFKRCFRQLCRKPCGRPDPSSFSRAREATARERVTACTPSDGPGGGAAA

For `CCc1c(C(=O)NCCc2ccc(N3CCCCC3)cc2)[nH]c2ccc(Cl)cc12`, “Emax of anandamide” read 28.4 ± 2.07% (CNR1; cAMP inhibition, negative allosteric modulator; HEK-CRE; 1 µM, 4 h, with: forskolin 10 µM).
`Clc1ccc(Cl)c(-c2c(Cl)ccc(Cl)c2Cl)c1` has an EC20 of 0.43 µM (Ryanodine receptor 1; [3H]ryanodine binding; rainbow trout, skeletal muscle microsomes).
Under “minimum inhibitory concentration”, `CCCCCCCCCCCCCC#CC(=O)Oc1ccc(/C=C/C(=O)/C=C/c2ccc(OC(=O)C#CCCCCCCCCCCCCC)c(OC)c2)cc1OC` is recorded as 250 µg/mL (≈ 314 µM) (DNA gyrase (Staphylococcus aureus, UniProt P0A0K8+P20831); DNA supercoiling, inhibitor).
For `CC(C)(NC(=O)c1nn(Cc2ccc(F)cc2)c2ccccc12)C1CCCN(C(N)=O)C1` (stereo not drawn), the Emax was 75 ± 5% (CNR1; calcium mobilization, agonist; CHO-K1 expressing Gαq16; reference: CP55,940 maximum).
`O=C(Cc1cccc(Cl)c1)NC1CCOC1=O` (stereo not drawn) has an activation of 82% (rhlR (Pseudomonas aeruginosa, UniProt P54292); reporter gene, agonist; Escherichia coli reporter strain; 100 µM; reference: BHL 900 µM).
`CC(=O)SCCNC(=O)CCNC(=O)[C@H](O)C(C)(C)COP(=O)(O)OP(=O)(O)OC[C@H]1O[C@@H](n2cnc3c(N)ncnc32)[C@H](O)[C@@H]1OP(=O)(O)O` has a Km of 0.035 ± 0.005 mM (2-isopropylmalate synthase, heterodimer with wild-type (leuA, Neisseria meningitidis serogroup B, UniProt Q9JZG1, R32Q); enzyme activity, substrate, DTP-coupled; R32Q heterodimer, one chain, with: α-ketoisovalerate 300 µM).
`Clc1cc(-c2cc(Cl)c(Cl)c(Cl)c2Cl)c(Cl)c(Cl)c1Cl` has an Emax of 130 ± 2.99% (Ryanodine receptor 1; [3H]ryanodine binding; rainbow trout, skeletal muscle microsomes; up to 20 µM; reference: DMSO).
`WLRRYLENGK` gave a trimming rate of 330 ± 34 pmol/nmol/s (ERAP2 (Homo sapiens, UniProt Q6P179, K392N); substrate, RP-HPLC; peptide; pH 7.0, 37 °C, with: 20 µM precursor).
`O=C1C[C@@H](c2ccc(O)c(O)c2)Oc2cc(O)cc(O)c21` — result for “substrate inhibition onset”: over 16 µM (SULT1A1 (Homo sapiens, UniProt P50225); substrate; recombinant enzyme).
With `Cc1cc(C(=O)N[C@H](CN2CCN(c3cccc(O)c3)[C@@H](C)C2)C(C)C)ccc1Oc1ccccc1` the Ke was 435 ± 140 nM (OPRD1 (Homo sapiens, UniProt P41143); antagonist; CHO; with: DPDPE).
The survival of `O=c1c2ccccc2[se]n1-c1ccccc1` is reported as 100% (Toxin B (tcdB, Clostridioides difficile, UniProt P18177); mouse; 100 nM, 3 days, with: toxin B 1.0 µg/kg ip).
With `O=C1Nc2ccc3ncsc3c2/C1=C/Nc1ccc(S(=O)(=O)Nc2ccccn2)cc1` the sensitivity ratio was over 10 fold (Putative glycogen synthase kinase (Leishmania major, UniProt Q4QE15, Y102F); kinase inhibition, inhibitor; Y102F mutant, short isoform; reference: wild type over Y102F mutant).
For `CCCCSS(C)(=O)=O`, GABA current read “decreased” (Gabrg2/GABRB2/Gabra1 (Rattus norvegicus, UniProt P18508+P47870+P62813, C260A/C282A/C312A/C319A/C341A/F313C); covalent modifier, two-electrode voltage clamp; Xenopus laevis oocytes; 0.5 mM, labelled without GABA, with: GABA EC10; reference: before labelling).
For `Clc1cccc(-c2cccc(Cl)c2Cl)c1`, the EC20 was 79.3 µM (Ryanodine receptor 1; [3H]ryanodine binding; rainbow trout, skeletal muscle microsomes).
`C[C@H]1CCCC(=O)CCC/C=C/c2cc(O)cc(O)c2C(=O)O1` has a Km of 11.2 ± 0.98 mM (zhd101 (Clonostachys rosea, UniProt Q8NKB0, D57K); substrate, HPLC; 10 min, pH 5.5, 37 °C, 1% acetonitrile).
With `C=C(CC[C@@H](C)[C@H]1CC[C@H]2C3=C(C(=O)C[C@]12C)[C@@]1(C)CCC(=O)[C@@H](C)[C@@H]1CC3=O)[C@H](C)C(=O)O` the induction was 2.5 (Peroxisome proliferator-activated receptor alpha (Rattus norvegicus, UniProt P37230); reporter gene, agonist; CHO-K1; 10 µM).
`CC(C)(NC(=O)c1nn(CC2CCOCC2)c2ccccc12)c1cccc(C(N)=O)c1` has an Emax of 92 ± 1% (CNR1; calcium mobilization, agonist; CHO-K1 expressing Gαq16; reference: CP55,940 maximum).
`CN(Cc1cnc2nc(N)nc(N)c2n1)c1ccc(C(=O)N[C@@H](CCC(=O)O)C(=O)O)cc1` — result for “rhodopsin P23H level”: “no effect” (Rhodopsin (Rho, Mus musculus, UniProt P15409, P23H); immunostaining imaging; NIH3T3 (RHO P23H-GFP); concentration not given, with: MG-132 5 µM).
With `HSGTESQAKHCIPEKNHTLQ` the kcat was 5.2 ± 0.1 s⁻¹ (PTPN22 (Homo sapiens, UniProt Q9Y2R2); enzyme activity; peptide; 25 nM, pH 6.0, with: DiFMUP).
For `C[C@H](NC(=O)c1nn(Cc2ccc(F)cc2)c2ccccc12)c1cccc(C(N)=O)c1`, the Emax was 85 ± 6% (CNR1; calcium mobilization, agonist; CHO-K1 expressing Gαq16; reference: CP55,940 maximum).
The degradation rate of `Nc1ncnc2c1ncn2[C@@H]1O[C@@H]2COP(=O)(O)O[C@H]3C[C@H](n4cnc5c(N)ncnc54)O[C@@H]3COP(=O)(O)O[C@H]2[C@H]1F` is reported as at most 0.001 mol/min/mol enzyme (gdpP, residues 84-659 (Bacillus subtilis, UniProt P37484); substrate, HPLC; 100 µM, 37 °C, upper limit if undegraded 24 h, with: enzyme 1 µM).
For `DNRDGNVYYF`, the Hill coefficient was 1.6 ± 0.2 (Serine endoprotease DegS (degS, Escherichia coli, UniProt P0AEE3); substrate; peptide; 23 °C, with: OMP peptide).
Under degradation, `NCCCCCCNC(=O)c1ccc(NC(=O)c2ccc(CN(C(=O)c3ccc4c(c3)OCC(=O)N4)C3CC3)cc2)cc1` is recorded as “no effect” (NSD2 (Homo sapiens, UniProt O96028); compound-induced degradation, degrader, in-cell western; U2OS, UBR1 siRNA knockdown; i=-2,-3,-4).
`anthraquinone-neomycin` gave a binding enthalpy of -14.5 ± 0.1 kcal/mol (poly(dA)•2poly(dT) triplex DNA; isothermal titration calorimetry; concentration not given, pH 6.8, 5 °C, KCl 150 mM).
For `CC(C)CCCc1ccc2cc(C(=O)O)ccc2c1`, potentiation read “decreased” (Glutamate NMDA receptor; Grin1/Grin2b (Grin1/Grin2b, Rattus norvegicus, UniProt P35439+Q00960); decreased, potentiator, two-electrode voltage clamp; Xenopus oocytes; 50 µM, 30 min, with: alkaline phosphatase injection, pregnenolone sulfate 100 µM; reference: water injection).
The Ki ratio of `Cc1ccc2nc(-c3ccc4nc(-c5ccc(NC(=O)c6cc(C(F)(F)F)cc(C(F)(F)F)c6)cc5)sc4c3)sc2c1S(=O)(=O)O.N` is reported as about 5 fold (HCV genotype 1a NS3/NS4A protease M485A; peptide cleavage, inhibitor; reference: wild type over M485A).
`CCOc1ccccc1S(=O)(=O)N1CC(c2nc(-c3ccc(F)s3)no2)C1`: activity “inactive” (Calcium-activated potassium channel subunit alpha-1, with beta-3 subunit (KCNMA1, Homo sapiens, UniProt Q12791); HEK293; 30 µM).

Some of these lines once more:
For `CCc1c(C(=O)NCCc2ccc(N3CCCCC3)cc2)[nH]c2ccc(Cl)cc12`, “Emax of anandamide” read 28.4 ± 2.07% (CNR1; cAMP inhibition, negative allosteric modulator; HEK-CRE; 1 µM, 4 h, with: forskolin 10 µM).
`Clc1ccc(Cl)c(-c2c(Cl)ccc(Cl)c2Cl)c1` has an EC20 of 0.43 µM (Ryanodine receptor 1; [3H]ryanodine binding; rainbow trout, skeletal muscle microsomes).
Under “minimum inhibitory concentration”, `CCCCCCCCCCCCCC#CC(=O)Oc1ccc(/C=C/C(=O)/C=C/c2ccc(OC(=O)C#CCCCCCCCCCCCCC)c(OC)c2)cc1OC` is recorded as 250 µg/mL (≈ 314 µM) (DNA gyrase (Staphylococcus aureus, UniProt P0A0K8+P20831); DNA supercoiling, inhibitor).
